Results collected from several papers.
Compare with care: the assays were run in different laboratories.
Target: Cystic fibrosis transmembrane conductance regulator (CFTR, Homo sapiens, UniProt P13569, del508-508)
Action: corrector

`COc1ccc(Cl)cc1Cn1nc(-c2sc(NC(=O)C(C)(C)C)nc2C)cc1C(=O)NCCO` gave a Vmax of 2.4 µM/s (iodide influx, YFP quenching; FRT expressing ΔF508-CFTR and YFP-H148Q/I152L; together with: forskolin 20 µM + genistein 50 µM).
`COc1ccc(Cl)cc1Nc1nc2c(s1)CCCc1nc(NC(=O)C3CC3)sc1-2` gave a Vmax of 473 µM/s (iodide influx, YFP halide quenching; FRT cells expressing YFP-H148Q/I152L; 16 to 20 h, 37 °C, genistein 50 µM, together with: forskolin 20 µM).
For `COc1ccc(NC(=O)c2cc(-c3sc(NC(=O)C(C)(C)C)nc3C)n(-c3ccc(Br)cc3)n2)cc1`, the Vmax was 2.5 µM/s (iodide influx, YFP quenching; FRT expressing ΔF508-CFTR and YFP-H148Q/I152L; together with: forskolin 20 µM + genistein 50 µM).
`Cc1cc(C)c2cc(C#N)c(NCCNC(=O)c3ccccc3)nc2c1`: EC50 “inactive” (ΔF508-CFTR correction; FRT; up to 25 µM, 37 °C, together with: forskolin 20 µM + genistein 50 µM).
`COc1ccc([N+](=O)[O-])cc1Nc1nc2c(s1)CCCc1nc(NC(=O)C(C)(C)C)sc1-2` has a Vmax of 485 µM/s (iodide influx, YFP halide quenching; FRT cells expressing YFP-H148Q/I152L; 16 to 20 h, 37 °C, genistein 50 µM, together with: forskolin 20 µM).
`COc1ccc(C(=O)NCCNc2nc3cc(C)cc(C)c3cc2C#N)cc1OC` has a Vmax of 380 µM/s (CFTR correction, iodide influx rate; FRT expressing YFP-H148Q/I152L; up to 25 µM, 16-20 h, 37 °C, together with: forskolin 20 µM, genistein 50 µM).
`CN(C)c1ccc(Cl)cc1Nc1nc2c(s1)CCCCc1nc(NC(=O)C(C)(C)C)sc1-2` has a Vmax of 198 µM/s (iodide influx, YFP halide quenching; FRT cells expressing YFP-H148Q/I152L; 16 to 20 h, 37 °C, genistein 50 µM, together with: forskolin 20 µM).
`COc1ccc(C(=O)N2CCN(c3nc4cc(C)cc(C)c4cc3C#N)CC2)cc1`: EC50 “inactive” (ΔF508-CFTR correction; FRT; up to 25 µM, 37 °C, together with: forskolin 20 µM + genistein 50 µM).
`COc1ccc(Cl)cc1Cn1nc(-c2sc(NC(=O)C(C)(C)C)nc2C)cc1C(=O)N1CCOCC1` has a Vmax of 7.26 µM/s (iodide influx, YFP quenching; FRT expressing ΔF508-CFTR and YFP-H148Q/I152L; together with: forskolin 20 µM + genistein 50 µM).
The Vmax of `COC(=O)CCC(=O)Nc1nc2c(s1)-c1nc(Nc3cc(Cl)ccc3OC)sc1CCC2` is reported as 678 µM/s (iodide influx, YFP halide quenching; FRT cells expressing YFP-H148Q/I152L; 16 to 20 h, 37 °C, genistein 50 µM, together with: forskolin 20 µM).
`Cc1cc(C)c2cc(C#N)c(NCCCNC(=O)c3ccccn3)nc2c1`: EC50 “inactive” (ΔF508-CFTR correction; FRT; up to 25 µM, 37 °C, together with: forskolin 20 µM + genistein 50 µM).
`Cc1nc(NC(=O)C(C)(C)C)sc1-c1cc(C(=O)NCc2ccccc2)n(Cc2ccccc2)n1` gave a Vmax of 1 µM/s (iodide influx, YFP quenching; FRT expressing ΔF508-CFTR and YFP-H148Q/I152L; together with: forskolin 20 µM + genistein 50 µM).
For `Cc1cc(C)c2cc(C#N)c(N3CCN(C(=O)c4ccccn4)CC3)nc2c1`, EC50 read “inactive” (ΔF508-CFTR correction; FRT; up to 25 µM, 37 °C, together with: forskolin 20 µM + genistein 50 µM).
For `Cc1cccc(Nc2ncnc3onc(-c4ccc(F)cc4)c23)c1C`, “Vmax iodide influx” read 161 µM/s (ion current; FRT expressing CFTR ΔF508; concentration not given; reference: DMSO).
With `CCC(C)C(=O)Nc1nc2c(s1)-c1nc(Nc3cc(Cl)ccc3OC)sc1CCCC2` (stereo not drawn) the Vmax was 286 µM/s (iodide influx, YFP halide quenching; FRT cells expressing YFP-H148Q/I152L; 16 to 20 h, 37 °C, genistein 50 µM, together with: forskolin 20 µM).

A few entries again:
`COc1ccc(C(=O)N2CCN(c3nc4cc(C)cc(C)c4cc3C#N)CC2)cc1`: EC50 “inactive” (ΔF508-CFTR correction; FRT; up to 25 µM, 37 °C, together with: forskolin 20 µM + genistein 50 µM).
`CN(C)c1ccc(Cl)cc1Nc1nc2c(s1)CCCCc1nc(NC(=O)C(C)(C)C)sc1-2` has a Vmax of 198 µM/s (iodide influx, YFP halide quenching; FRT cells expressing YFP-H148Q/I152L; 16 to 20 h, 37 °C, genistein 50 µM, together with: forskolin 20 µM).
